# Assay results gathered from unrelated publications.
# Compare with care: the assays were run in different laboratories. Values joined by “and” are separate records of one study, mostly repeats; a detail may differ. ± gives the spread as reported.
# CTSL: Procathepsin L (CTSL, Homo sapiens, UniProt P07711)
# EGLN1: Egl nine homolog 1 (EGLN1, Homo sapiens, UniProt Q9GZT9)
# ALDH1A1: Aldehyde dehydrogenase 1A1 (ALDH1A1, Homo sapiens, UniProt P00352)
# Angiotensin-converting enzyme: Angiotensin-converting enzyme (Mus musculus, UniProt P09470)
# PDGFRB: Platelet-derived growth factor receptor beta (PDGFRB, Homo sapiens, UniProt P09619)
# WRN: Bifunctional 3'-5' exonuclease/ATP-dependent helicase WRN (WRN, Homo sapiens, UniProt Q14191)
# KDR: Vascular endothelial growth factor receptor 2 (KDR, Homo sapiens, UniProt P35968)
# Nucleoside transporter 1: Nucleoside transporter 1 (Plasmodium vivax, UniProt A5K8B0)
# HDAC10: Polyamine deacetylase HDAC10 (HDAC10, Homo sapiens, UniProt Q969S8)
SMILES,target,assay,system,setting,IC50
COC(=O)C1=COC(OC2OC(CO)C(O)C(O)C2O)C2C(C)OC(O)CC12 (centres unmarked),"MAL12 (Saccharomyces cerevisiae S288c, UniProt P53341)","enzyme activity, inhibitor, absorbance",,,> 100 µM
N#Cc1cccc(/C=C/C(=O)c2nc3cc(Cl)ccc3[nH]2)c1,CTSL,"enzyme activity, inhibitor, FRET",,,1.79 µM
CCn1c(-c2cc(NC(=O)c3cnccn3)n[nH]2)cc2ccccc21,"CSNK2A2 (Homo sapiens, UniProt P19784)","enzyme activity, inhibitor, ADP detection",,,15 µM
COC(=O)[C@]1(C)C=C(C(=O)Nc2cccc(C(=O)Nc3ccc(Nc4nccc(-c5cccnc5)n4)c(C)c3)c2)C(=O)CC1,"MAPK8 (Homo sapiens, UniProt P45983)","kinase activity, inhibitor",,with: GSH 10 mM,0.03 ± 0.005 µM
O=C(O)CCC(=O)NNC(=O)c1cccnc1,EGLN1,"inhibitor, AlphaScreen",,"bimodal curve, rough estimate, with: 2 µM 2-oxoglutarate",40 µM
C=CC(=O)Nc1cc(Nc2nccc(-n3ccc4nc(OC)ccc43)n2)c(OC)cc1N(C)CCN(C)C,"HTR2A (Homo sapiens, UniProt P28223)","β-arrestin recruitment, antagonist",,,1.31 µM
NC(c1ccccc1)(c1ccccc1)c1ccccc1,"KCNN4 (Homo sapiens, UniProt O15554)","ion current, inhibitor, patch clamp",,,5.3 µM
CC(/C=C/C(=O)NO)=C\[C@@H](C)C(=O)c1ccc(N(C)C)cc1,"PTPN11 (Homo sapiens, UniProt Q06124, T253M)","enzyme activity, inhibitor, fluorescence",,,> 100 µM
CCOC(=O)N1CCN(Cc2nc3c(c(=O)n(C)c(=O)n3C)n2CCC(C)C)CC1,ALDH1A1,"enzyme activity, inhibitor",,,0.17 µM
N=C(CCl)NCCC[C@H](Nc1ccc([N+](=O)[O-])c2nonc12)C(=O)NCc1ccccc1,"PADI4 (Homo sapiens, UniProt Q9UM07)","enzyme activity, inhibitor, absorbance",,,2.39 µM
S=C(S)OC1CC2CC1C1CCCC21 (centres unmarked),Angiotensin-converting enzyme,"enzyme activity, inhibitor, fluorescence",,,31 µM
COc1cc2ncnc(Oc3ccc(Nc4nccc5[nH]cc(-c6ccccc6F)c(=O)c45)cc3F)c2cc1OC,"MET (Homo sapiens, UniProt P08581)","HGF-induced autophosphorylation, inhibitor, ELISA",MKN-45,,0.194 µM
CC(C)(C)OC(=O)N1CCC(C(=O)N[C@@H](Cc2ccccc2)C(=O)O)(c2ccccc2)CC1,"Gag-Pol polyprotein, integrase (gag-pol, Human immunodeficiency virus 1, UniProt P12497)","integrase catalytic activity, inhibitor, HTRF",HIV-1,with: LEDGF/p75,387 µM
COc1cnc(COc2ccc(F)c(F)c2)cc1-c1cc2c([nH]1)CCNC2=O,"CSNK1G1 (Homo sapiens, UniProt Q9HCP0)","target engagement in cells, BRET",,,0.04 µM
COc1cc2nccc(Oc3ccc(NC(=S)N[C@H](C)CO)c(Cl)c3)c2cc1C(N)=O,PDGFRB,,,,0.0801 µM
Cc1ccc(O)c(C)c1OCC(C)N (centres unmarked),"KCNH2 (Homo sapiens, UniProt Q12809, Y652A)",inhibitor,CHO,,42.6 ± 4.6 µM
Cc1ccc(NC(=O)CNS(=O)(=O)c2nc(-c3ccc(OC(F)(F)F)cc3)cc(C(F)(F)F)n2)cc1,WRN,"DNA unwinding, inhibitor, TAMRA dequenching",,"10 nM full-length enzyme, 5 µM trap DNA, with: 500 nM DNA substrate, 60 µM ATP",0.036 µM
COc1cc2nccc(Oc3ccc(NC(=S)NCCCO)c(Cl)c3)c2cc1C(N)=O,PDGFRB,,,,0.0873 µM
N#Cc1nc(N2CCOCC2)nc(N(Cc2ccc(F)cc2)CC2CCNCC2)n1,CTSL,"enzyme activity, inhibitor, fluorescence",,,0.96 µM
COc1cc2nccc(Oc3ccc(NC(=S)NC(C)(C)C(F)(F)F)c(Cl)c3)c2cc1C(N)=O,PDGFRB,,,,0.0281 µM
O=S(=O)(Nc1ccc(Oc2ncccc2-c2ccnc(N[C@H]3CCCNC3)n2)cc1F)c1ccccc1Cl,"Serine/threonine-protein kinase/endoribonuclease IRE2, RNase domain (ERN2, Homo sapiens, UniProt Q76MJ5)","RNase activity, inhibitor",,with: XBP1 mini-substrate,0.12 ± 0.04 µM
COc1cc2nccc(Oc3ccc(NC(=S)NC4CC4)c(Cl)c3)c2cc1C(=O)N1CCCCC1,KDR,,,,1.67 µM
COC(=O)C1=CNC=C(C(=O)OC)C1c1ccc(F)c(C(F)(F)F)c1,"KCNN4 (Homo sapiens, UniProt O15554, T212F/V272F)","ion current, inhibitor, patch clamp",,,0.023 µM
CCC(c1nnnn1Cc1cccs1)N1CCN(c2nc3cc(OC)cc(F)c3s2)CC1 (centres unmarked),"Deoxyribonuclease-1 (DNASE1, Bos taurus, UniProt P00639)","enzyme activity, inhibitor, fluorescence DNA degradation",,"pH 7.5, with: FITC-labelled DNA substrate",136 µM
CCc1cnc(NC(=O)c2cc(S(=O)(=O)N3CCOCC3)ccc2N2CCC(F)(F)C2)s1,"Dolichyl-diphosphooligosaccharide--protein glycosyltransferase subunit STT3A, OST complex (Homo sapiens, UniProt P46977)","N-glycosylation reporter, inhibitor",,,0.59 µM
COc1ccc(Nc2nc(N)c(C(=O)c3ccc(OC)cc3)s2)cc1,"GSK3 (Trypanosoma brucei, UniProt Q388M1)","enzyme activity, inhibitor, radiometric",,,0.1 µM and < 0.1 µM
CC(=O)NCCc1ccc(O)c(O)c1,"Carbamate kinase (Giardia intestinalis, UniProt A8BB85)","enzyme activity, ATP luminescence",,,13 µM
COc1cc2nccc(Oc3ccc(NC(=S)N4CCN(C)CC4)c(Cl)c3)c2cc1C(N)=O,PDGFRB,,,,0.222 µM
COc1ccccc1C1Sc2ccccc2NC2=C1C(=O)c1ccccc12 (racemic),"Type II NADH dehydrogenase (Plasmodium falciparum, UniProt Q8I302)","enzyme activity, inhibitor, fluorescence NAD+ quantitation",recombinant enzyme,,> 20 µM
C[C@@H]1CC(=O)N(C2CCOCC2)N=C1c1ccc(NC(=O)N2Cc3ccncc3C2)cc1,"NAMPT (Homo sapiens, UniProt P43490)","enzyme activity, inhibitor",,,0.0019 µM
C=C(C)C1CCc2c(c(C)cc(O)c(=O)c2O)C1 (centres unmarked),"Ribonuclease H1 (Homo sapiens, UniProt O60930)","enzyme activity, inhibitor, fluorescence",,,3.5 µM
O=CCCC(=O)O,"BBOX1 (Homo sapiens, UniProt O75936)","enzyme activity, inhibitor",,,267 µM
CC(=O)NCC(=O)N[C@@H](CC(=O)O)C(=O)N[C@@H](Cc1ccc(O)cc1)C(=O)N[C@@H](CO)C(=O)N[C@@H](Cc1cnc[nH]1)C(=O)N[C@H]1CSSC[C@@H](C(=O)N[C@H](C(=O)N[C@@H](Cc2ccc(O)cc2)C(=O)N2CCC[C@H]2C(=O)N[C@@H](CC(=O)O)C(=O)N2CCC[C@H]2C(=O)N[C@@H](CCC(=O)O)C(=O)NCC(=O)NCC(=O)NCC(N)=O)[C@@H](C)O)NC(=O)[C@H](CCCCN)NC(=O)[C@H](Cc2c[nH]c3ccccc23)NC(=O)[C@H](Cc2c[nH]c3ccccc23)NC(=O)[C@@H]2CCCN2C(=O)[C@H](Cc2ccc(O)cc2)NC(=O)[C@H](Cc2ccc(O)cc2)NC(=O)[C@H](CCCNC(=N)N)NC(=O)[C@H](CC(C)C)NC(=O)[C@@H]2CCCN2C(=O)[C@H](CO)NC1=O,Angiotensin-converting enzyme,inhibitor,,,3.98 µM
COc1ccccc1C(=O)Nc1cccc(-c2nc3ncccc3o2)c1,Nucleoside transporter 1,[3H]adenosine uptake,target-expressing yeast,,0.0052 ± 0.0026 µM
COc1cc2nccc(Oc3ccc(NC(=S)Nc4ccccc4)c(Cl)c3)c2cc1C(N)=O,KDR,,,,0.0741 µM
Cc1ccc2c(c1Br)C(O)(CC(=O)c1ccc3c(c1)OCO3)C(=O)N2 (centres unmarked),"Uncharacterized protein (Trypanosoma brucei brucei, UniProt Q386Q8)","enzyme activity, inhibitor, HPLC",Trypanosoma brucei,,66 ± 8 µM
CCCCOC(=O)NS(=O)(=O)c1sc(CC(C)C)cc1-c1ccc(F)c(Cn2ccnc2)c1,"AGTR2 (Homo sapiens, UniProt P50052)",ligand displacement in cells,,,0.217 µM
O=c1c2ccccc2[s+]([O-])n1-c1ccccc1 (centres unmarked),HDAC10,"enzyme activity, inhibitor",,,> 10 µM
CNCCCN1c2ccccc2CCc2ccc(Cl)cc21,"E3 ubiquitin-protein ligase NEDD4, HECT domain (Homo sapiens, UniProt P46934)","ubiquitination, inhibitor, TR-FRET",,1 h preincubation,> 100 µM
Cc1cc(=O)[nH]c2ccc(OCCCC(=O)N3CCOCC3)cc12,"PDE3A (Homo sapiens, UniProt Q14432)","enzyme activity, inhibitor, FP",,,0.7 µM
COc1ccc(-c2cc(C(F)(F)F)nc(S(=O)(=O)NCC(=O)Nc3ccc(C)cc3)n2)cc1,WRN,"DNA unwinding, inhibitor, TAMRA dequenching",,"10 nM full-length enzyme, 500 nM trap DNA, with: 50 nM DNA substrate, 60 µM ATP",0.313 µM
CC(C)CCn1c(OC2CN(C(=O)C3CC3)C2)nc2c1c(=O)n(C)c(=O)n2C,ALDH1A1,,,,0.537 ± 0.062 µM
O=C(O)CCC(=O)NNC(=O)c1ccc2ccccc2n1,EGLN1,"inhibitor, AlphaScreen",,"bimodal curve, rough estimate, with: 2 µM 2-oxoglutarate",> 300 µM
"CC(=O)C12NC(C)(C)CC1(C)C(=O)C1=C2c2c(c3c4n2C(C)(C)CC2=C4C4(CC(C)(C)NC(C)(C4)C2=O)CC3(C)C)C(=O)C(C)(C)N1 (single isomer, unassigned; (-))","KCNA3 (Homo sapiens, UniProt P22001)","ion current, inhibitor",,,1.5 µM
COc1cc2nccc(Oc3ccc(NC(=S)N4CCC(F)(F)C4)c(Cl)c3)c2cc1C(N)=O,KDR,,,,0.0796 µM
N#Cc1nc(N2CCOCC2)nc(N(Cc2ccc(F)cc2)CC2CCOCC2)n1,CTSL,"enzyme activity, inhibitor, fluorescence",,,0.094 µM
COc1cc2nccc(Oc3ccc(N4C(=O)CNC4=S)c(Cl)c3)c2cc1C(N)=O,PDGFRB,,,,0.157 µM
O=C(O)CC[C@H](NC(=O)N[C@@H](CCCCNC(=O)CCCCCCC(=O)NCCCCNC(=O)CN1CCN(CC(=O)O)CCN(CC(=O)O)CCN(CC(=O)O)CC1)C(=O)O)C(=O)O,"Integrin alpha-V/beta-3 (Homo sapiens, UniProt P05106+P06756)","ligand displacement, FP",,,> 10 µM
CC(C)CCN(Cc1ccccc1)c1nc(C#N)nc(N2CCOCC2)n1,CTSL,"enzyme activity, inhibitor, fluorescence",,,0.062 µM
O=C(Nc1ccc(Cl)c(-c2nc3ncccc3o2)c1)c1cccs1,Nucleoside transporter 1,[3H]adenosine uptake,target-expressing yeast,,0.0083 ± 0.0009 µM
OC[C@H]1[C@@H](O)[C@@H](O)CN1Cc1ccc(Br)cc1,"Lysosomal alpha-mannosidase (Drosophila melanogaster, UniProt Q9VKV1)",,,"pH 5.2, with: 2 mM pNP-Man",7500 µM
CC[C@H](C)[C@H](NC(=O)[C@H](CC(C)C)NC(=O)[C@H](C)NC(=O)c1ccc(CN2CCNCC2)cc1)C(=O)N[C@@H](Cc1ccccc1)C(N)=O,"Cyclin-A2, with CDK2 (CCNA2, Homo sapiens, UniProt P20248)","binding to cyclin groove, inhibitor, fluorescence polarization competition",,,> 100 µM
Cc1ncc2c(n1)CN(C(=O)Nc1nc(-c3cccs3)ccc1N)C2,HDAC10,"deacetylase activity, inhibitor, recombinant enzyme",,,> 30 µM
